Results from different studies.
Each line is one published result; not all experiments were run side by side.

`Cc1cc(C)c(CNC(=O)c2cc(Cl)c3c(c2C)O[C@@](C)([C@H]2CC[C@H](N(C)C)CC2)O3)c(=O)[nH]1` — result for “grade 5 AST increased incidence”: 0% (relapsed/refractory NHL patients; dose not given, treatment-related TEAEs, safety set).
For `COc1cc2c(Oc3ccc4[nH]c(C)cc4c3F)ccnc2cc1OCC1(N)CC1`, “grade 1 or 2 Hematochezia” read 5.9% (paediatric recurrent refractory sarcoma; concentration not given, whole group).
For `NC(=O)[C@H]1CCN(c2ncnc(N)c2F)C[C@@H]1N1CCC[C@@H](Nc2cc(Cl)cc(C(F)(F)F)c2)C1=O`, “grade ≥3 leukopenia” read 0% (B-cell malignancy patients; oral, 82 mg twice daily, dose).
`CCN1[C@@H](C(=O)NC23CCC(C(=O)O)(CC2)CC3)[C@H](c2cccc(Cl)c2F)[C@]2(C(=O)Nc3cc(Cl)ccc32)C12CCCCC2` — result for “grade ≥3 Anemia incidence”: 23.8% (patients with advanced solid tumours; oral, dose not given, all doses).
For `Nc1nc2cc(-c3ccc4ncc(C(=O)N5CCOCC5)n4c3)ccc2o1`, “grade ≥3 drug-related AEs” read 27% (advanced solid tumour patients; dose not given, all schedules; relative to: patients).
`N#CCNC(=O)c1ccc(-c2ccnc(Nc3ccc(N4CCOCC4)cc3)n2)cc1` — result for “grade 3 adverse events”: 0% (healthy volunteers; oral, 200 mg, with: midazolam 5 mg).
`COc1ccc(-c2c(-c3ccc(C#N)c(F)c3)nc(N3CCC(N)CC3)n(C)c2=O)cc1F`: “grade 3-4 TRAE incidence” 0% (refers to: maculo-papular rash; relapsed/refractory MZL patients; oral, 60 mg, dose expansion).
`CC(C)n1c(C2CCNCC2)nc2c([N+](=O)[O-])c(Br)c(Br)cc21` — result for “grade ≥3 adverse events”: 25% (refers to: Neutropenia; AML patients; dose not given, all doses).
`CC(=O)c1c(C)c2cnc(Nc3ccc(C4CCN(CCS(C)(=O)=O)CC4)cn3)nc2n(C2CCCC2)c1=O` — result for “grade 3/4 neutropenia TEAE”: 47.3 % patients (HR+/HER2- advanced breast cancer patients; oral, dose not given).
`N[C@@H]1c2ccccc2OC12CCN(c1cnc3c(N4CCCc5ncccc54)n[nH]c3n1)CC2` — result for “grade ≥3 decreased appetite TEAE”: 0% (patients advanced metastatic solid tumours; oral, 60 mg once daily, pooled cohort).

Some of these lines once more:
`CCN1[C@@H](C(=O)NC23CCC(C(=O)O)(CC2)CC3)[C@H](c2cccc(Cl)c2F)[C@]2(C(=O)Nc3cc(Cl)ccc32)C12CCCCC2` — result for “grade ≥3 Anemia incidence”: 23.8% (patients with advanced solid tumours; oral, dose not given, all doses).
